Measured values gathered from unrelated publications.
A part holds a random share of what one study measured.

Series 1
Target: TATA-box-binding protein 1 (TBP1, Arabidopsis thaliana, UniProt P28147, residues 1-200, full length assumed)
Method: protein-binding microarray
Molecule type: double-stranded DNA, one strand shown
Matrix: in vitro
Tested at: not given
Setting: k-mer, scored over probes, only values ≥0.25
Direction: higher = stronger binding
Endpoint: E-score
Residues (chain): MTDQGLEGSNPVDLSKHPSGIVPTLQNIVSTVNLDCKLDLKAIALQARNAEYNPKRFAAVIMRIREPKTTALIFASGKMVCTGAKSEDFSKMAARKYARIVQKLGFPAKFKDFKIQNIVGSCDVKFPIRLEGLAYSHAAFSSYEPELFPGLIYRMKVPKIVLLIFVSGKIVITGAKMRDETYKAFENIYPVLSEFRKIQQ
ATATCCC: 0.288
GCTTATA: 0.437
ACTTAAG: 0.357
TATTCAA: 0.257
AAATTTC: 0.251
AGAATAA: 0.309
ATAAGAA: 0.332

Series 2
Target: RING finger protein unkempt homolog, zinc fingers 1-6, GST-SBP tag (UNK, Homo sapiens, UniProt Q9C0B0, residues 30-357)
Sequence of UniProt Q9C0B0 (30-357, looked up): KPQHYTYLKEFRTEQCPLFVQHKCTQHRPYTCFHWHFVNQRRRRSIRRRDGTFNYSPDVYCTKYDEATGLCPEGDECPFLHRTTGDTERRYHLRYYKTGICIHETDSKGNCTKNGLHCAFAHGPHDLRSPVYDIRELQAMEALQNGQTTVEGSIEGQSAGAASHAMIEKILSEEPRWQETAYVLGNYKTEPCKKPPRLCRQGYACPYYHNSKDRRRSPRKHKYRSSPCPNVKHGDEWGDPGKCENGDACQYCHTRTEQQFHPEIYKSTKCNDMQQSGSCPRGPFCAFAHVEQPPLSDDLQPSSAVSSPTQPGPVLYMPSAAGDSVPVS
Method: RNA Bind-n-Seq
Molecule type: RNA
Matrix: in vitro
Tested at: not given
Setting: RNA with constant flanks, human and mouse sites, ends assumed
Relative to: input RNA pool
Direction: higher = stronger binding
Endpoint: bound/input enrichment
GGGAGUUCUACAGUCCGACGAUCACACUCUGACAUGAAUGAAUUAUUAUUAUUUUUAUUUUUCUUUUUUUUUUUACAUUUUGUAUAGAAACAAAUUCAUUUAAACAAACUUAUUAUUAUUAUUUUUUACAAAAUAUAUAUAUGCAACAGAGGAUUGAGCAUCA: 73 ratio
GGGAGUUCUACAGUCCGACGAUCACCGUGCCCUAGAAUUUGCCCCUGCCUGCCAUCGCUUCAAAAUCCUCAAGGCAGAAUGUUUAGCAAUGCUGGGUCGUUAUCCAGAAGCACAGUCUGUGGCUAGUGACAUUCUACGAAUGGCAACAGAGGAUUGAGCAUCA: 0.351 ratio
GGGAGUUCUACAGUCCGACGAUCAUAGUGUUGCGAGAUAGUCUUCAUCAGCCACAGUAUGUAGAAAAGUUAGAGAAGAUUCUUCGUUUUGUCAUCAAAGAAAAAGCUCUGACCUUACAGGAUCUUGAUAAUAUCUGGGCAGCACAACAGAGGAUUGAGCAUCA: 0.132 ratio

Series 3
Target: Interferon regulatory factor 5, full length, phosphomimetic (IRF5, Homo sapiens, UniProt Q13568-2, residues 1-514, K96S/S451D/S453D/S456D/S462D)
Method: protein-binding microarray
Molecule type: double-stranded DNA, one strand shown
Matrix: in vitro
Tested at: 250 nM
Setting: 60-bp whole probe
Together with: salmon DNA 0.4 mg/ml
Relative to: random background probes
Direction: higher = stronger binding
Endpoint: log fluorescence
Constant ends, left off below: GCCTAGCAC … GTCTTGATTCGCTTGACGCTGCTG
ACCGATTTCCTTCACCCACTGTGCTAG: 0.673 z-score
GACGGTATCTGTCTCGGGACGTGCTAG: 0.594 z-score
TTACATCTCAGTTTCGATTAGTGCTAG: 9.73 z-score
GACGGTTTCTACACTGGGGACGTGCTA: 0.625 z-score
TCAATTGTGGATCTTGCACTGTGCTAG: 0.093 z-score

Further values, each from its own experiment
PhoQ, residues 284 288 289 292 302 303 AGHLVA  fold induction (PhoP, residues 12 14 15 18 19 TPLRH (Escherichia coli, UniProt P23836); Sort-seq, measured: YFP reporter; E. coli; PhoQ-PhoP variant library, together with: 10 µM Mg2+; relative to: high Mg2+ state, higher = stronger signaling): 0.537

A few entries again (series 1):
ATATCCC: 0.288
GCTTATA: 0.437
